Measured values from different studies.
Every numbered part comes from another study and shows a few of its results, in no order. Substitutions count along the parent as printed.

Study 1 — method: RNA Bind-n-Seq; molecule type: RNA; medium: in vitro; concentration: not given; baseline: input RNA pool; direction: higher = stronger binding
Target: RING finger protein unkempt homolog, zinc fingers 1-6, GST-SBP tag (UNK, Homo sapiens, UniProt Q9C0B0, residues 30-357)
Setting: RNA with constant flanks, human-mouse chimeric sites, ends assumed
Shared flanks, not repeated: GGGAGUUCUACAGUCCGACGAUC … CAACAGAGGAUUGAGCAUCA
Target sequence (chain): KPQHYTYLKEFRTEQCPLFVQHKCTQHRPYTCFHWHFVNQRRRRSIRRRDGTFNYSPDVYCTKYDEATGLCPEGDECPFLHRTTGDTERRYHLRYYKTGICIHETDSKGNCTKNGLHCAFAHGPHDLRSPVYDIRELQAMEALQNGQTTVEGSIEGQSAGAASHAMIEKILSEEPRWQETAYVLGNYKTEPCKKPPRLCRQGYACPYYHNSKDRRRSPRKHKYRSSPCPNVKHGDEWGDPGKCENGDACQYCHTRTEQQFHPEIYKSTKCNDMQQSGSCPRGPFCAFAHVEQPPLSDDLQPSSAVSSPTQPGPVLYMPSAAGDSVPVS
`GUAUACGGUUAUCGAGGAAAGGACUGUAGAGCUAAUGUUUACCUUCUUCCCACAGGGGAGAUAGUUUAUUUUAUCGCCUCAGUGGUAGUCCUGUUUAAUUAUGAGGAGAGGACUCAGCGA` gave a bound/input enrichment of 0.257 ratio.
`AGAUAUUAAGUAUUUUGAAAAAACUCGAACAGAUUUAACAAGGGUAGCCAGCUUGGAGUCUAGCAACUUGCCAAUGUGUUUACCAAUCUGGGGGCUUGUUUUUCUUUUCUUCUUUCAAAU` gave a bound/input enrichment of 0.329 ratio.
For `CUGUGUGUGCUGAAUAAAUGGCUUGUAAGAACUGUCCCCAAGUUGUAAACCCAUGCUGUUAUUAUAGUUGCUGCAAAAUGUUCUUCCUGAUAUUGAUUUUAUUUGUUAACUGAAGGUCUC`, the bound/input enrichment was 0.67 ratio.
For `UUGUGCAAUGAUGCUUGAGAUGGUUUUUGCAAAAGCAGAAAUCGCUGCAAGGUAAUCACAAUAGAUAAAAGUGGUAUUUUAAACCUUUGAAAGGAAUGGAUGUAACUGUACCUUGGUACA`, the bound/input enrichment was 0.342 ratio.
The bound/input enrichment of `AAUAGAGGAUCCACCUCCCAAAGUGCUGGGAGUAAAGGUGUGGCCACCACACCUAACUUGAUGGAUAUAUAUUUUUUCUCUUUUAUGUCUUCCUGUUCGUCCAGGGAAGAAAGAUUUGUU` is reported as 1.29 ratio.
For `GACUUGGGACCGUCCUGGGCUAGUACAAAUAGCGGCAUGGAGGCUCAGAGAGGAAAGUUUGUUAGUGGAGGCAGUGGUAGAGGCCGUCAUGUACGGUCCUUUACUCGAUAGAUGUGUUCU`, the bound/input enrichment was 0.681 ratio.
With `AACUUCGUGCAUCGGUUUCCCUUUGUAGCUGUUUCAAUUGGCUUUGCUGUGAAUAAAGAGAUGGAGUUUGGAAUUGUGUACAGUUGUGUGGAAGAUAAGAUGUACACCGGCAGGAAAGGG` the bound/input enrichment was 0.562 ratio.
With `CUGGCCUGGCCCUCCCCAGGGGCCUCCUUUCGUAUAGUAACUGUCAGUGCAUCAGAUACUUUCAGCUGCAACUCCCUACUGGGUGGGGCACCUAUCUCAGGCAGAAGGUUUUGGUACCCU` the bound/input enrichment was 0.288 ratio.
The bound/input enrichment of `GUCAACAGCUGCCUCAACCCCAUCCUCUACGCCUUCCUGGAUGAGAACUUCAAGGCCUGCUUCCGCAAGUUCUGCUGUGCAUCUGCCCUGCACCGGGACGUGCAGGUUUCUGAUCGUGUG` is reported as 0.252 ratio.
For `UCAGGAACUCAGACAAAUAUGAAUGUAAAUGAAGUCAUUAGCAACAGAGCAAUUGAAAUGUUAGGAGGUGAACUUGGCAGCAAGAAGCCUGUGCACCCCAAUGAUCAUGUUAACAAAAGC`, the bound/input enrichment was 0.442 ratio.
The bound/input enrichment of `GACAGUGAAGGCCCACUGUGUGAAUUGCUUUUUUUCUUCCUGACUGCAAUCUUCCAGGCGAUGGCUGAAGAAGAAGAGGAAGUAGCCAAAGAGCAACUAACUGAUGCUGACACCAAAGAU` is reported as 0.0627 ratio.

Study 2 — method: RNA Bind-n-Seq; molecule type: RNA; medium: in vitro; concentration: 365 nM; baseline: no-protein control; direction: higher = stronger binding
Target: RNA binding protein fox-1 homolog 2, RRM domain, GST-SBP tag (RBFOX2, Homo sapiens, UniProt O43251-10, residues 100-194)
Setting: natural RNA segment, single round, ends assumed
Shared flanks, not repeated: GGGAGUUCUACAGUCCGACGAUC … UGGAAUUCUCGGGUGCCAA
Construct (chain): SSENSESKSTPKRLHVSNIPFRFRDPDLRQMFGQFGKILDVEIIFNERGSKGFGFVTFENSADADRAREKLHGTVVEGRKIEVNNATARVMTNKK
`AAAUGUUCAUAAUUUUAAUGGAUAUUCUUUGGUGUGAAUAAUUGAAUACAACAUUUUUAAAAUAUCAUCUCUCAAGUUUGCUCUCGUUUGUGGGGAAGGCGACAGAUGCC`: “RBNS enrichment (R)” 0.863.
Under “RBNS enrichment (R)”, `UGUAAAAUAUUUUCAAAUGGUUUAUUACAGAAGAUCAGUUAUUAAAUAAUGUUCAUAUUUUCACUUCAAACCAGUUUCUAUCCACUGUGUGGGCCUUGGGUUGAGGACUG` is recorded as 0.479.
`UAUUUAUCUUGUACAUAUGUAUUUAGAAAACUUUUAAACUUGAAAAAUAAAUAAUACUUAAUGUUAAGUGUGUGUUUAUAUGAAACGUGUGUCUGGGAGUGAACUGCUUA`: “RBNS enrichment (R)” 0.561.
For `GAAAAGAUACAUUAAAAAAAAAUAAUAAUGAAGGGAGCUCAGAAUUCACACAGGCAAGGGUUGACUGGCCAAGCUGGCACCAUGUGCUUGUGCAGCUCUGGAUCUCUGAG`, “RBNS enrichment (R)” read 0.555.
For `AGGUUUGGCGGGGGGCCACAGGGAGGGGACCCUGACAAUAAAGAGAUUGGAUCCCAACCUGUUCUGAGAUGGGAUGGUUUGUGUUUUCUCAUGAAGAUAUCCCGGCCCCU`, “RBNS enrichment (R)” read 0.595.
`UAAGCGUUCCCUUUCCCCUUCUUAUUUAAGACUUCCCACCUUACUAAAUUACCAGCAAAACAAACCACUCUCCUGUUUGAGUAAAAUGAGAAAGUUAAUAUGUGGCCUCC`: “RBNS enrichment (R)” 0.653.
`GUUUGUUAUUUUUGUUACUGCCUUUUUUGAGAGAUUAUGUAUCUAUAUAGCUACCUGUCUAGAUCUGCAUCUGUGUGCCUAUGUAUAUAUUAUACACACACAGAGGCACU` — result for “RBNS enrichment (R)”: 0.461.
For `GAAGUGGAUUUUUAAAAAACAGUUAAAUGUGUGUGCAUAACACACAAGUAAUGACACACUACUAUUAUUAUUACCUAAGUAGUGCUCAUCCUCUCUUUCUGUGUUUUCUU`, “RBNS enrichment (R)” read 0.242.
`GGCAACACUGUUAUUGAAAAUCAUGUAAGAUUAAAGAGAGGCAUUUUCGUUUCUAUACAACUUCAUUUCAUACACCUUCUGCCCUUACAGCACCUCAUGGGAUCAGAAAA`: “RBNS enrichment (R)” 0.517.
`CCUCCGUAAACUCAGGAAGUGUCAGGUGAUUUCCUAGGGAGAGGUUCCCAGUCCCAGCAGGCAGAAUGCCCAAAACCAGGAGCACGAAGGCCUGUCAUCCAUGGGGCCAU` — result for “RBNS enrichment (R)”: 0.611.
Under “RBNS enrichment (R)”, `ACAUGUCUGACGUCAAGCGGAUAUCAGCCACGUCCAUCUUCUUCGAGUCUAUGCCCUAUAAGCUCAACGCCAAAACUGGCCUCAUUGACUACAACCAGCUGGCACUGACU` is recorded as 0.309.
Under “RBNS enrichment (R)”, `AUCACAAAAUACUGCUUCAAGAUUUAAUUUUAAAUCUGCUAAUUUAAGGGAUAUUGGGAAAAGUUUUGGUGUGUUUCUGUUGAUUUCUUUUUUGUAUGCUGUGAUAAAAG` is recorded as 1.19.

Study 3 — method: protein-binding microarray; molecule type: double-stranded DNA, one strand shown; medium: in vitro; concentration: not given; direction: higher = stronger binding
Target: Myc proto-oncogene protein, bHLH-zipper, MAX partner unstated (MYC, Homo sapiens, UniProt P01106, residues 368-449)
Chain of UniProt P01106 (368-449, looked up): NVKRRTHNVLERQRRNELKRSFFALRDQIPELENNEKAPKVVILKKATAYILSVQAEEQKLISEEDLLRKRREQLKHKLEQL
Setting: k-mer, scored over probes, only values ≥0.25
For `CATGCGCC`, the E-score was 0.442.
For `CCATGTGA`, the E-score was 0.451.
`ACGTGTCA` gave an E-score of 0.388.
`CCACCGCG` has an E-score of 0.278.
`ATACCACG` gave an E-score of 0.393.
`CGTGGCTA` gave an E-score of 0.446.
`CATGCGAG` has an E-score of 0.361.
For `ACACGTTA`, the E-score was 0.373.
For `GGCATGCA`, the E-score was 0.361.
With `CACGCATG` the E-score was 0.451.
For `ATGAGCAC`, the E-score was 0.33.
With `ACGCGCCA` the E-score was 0.301.
`CCCACGAG` gave an E-score of 0.413.
For `CGCGCGAC`, the E-score was 0.267.
`GCATGGAA` has an E-score of 0.36.
With `AACACGCC` the E-score was 0.376.
For `AGGGCACG`, the E-score was 0.318.
`CGTGTCTC` gave an E-score of 0.374.
The E-score of `TCCATGCA` is reported as 0.335.
For `CGTGCGAC`, the E-score was 0.32.
With `GCACGTGC` the E-score was 0.495.
`CGGCACGA` gave an E-score of 0.335.
`ACACGCGA` gave an E-score of 0.387.
The E-score of `CGGTAGCA` is reported as 0.308.
For `CGCACGCC`, the E-score was 0.371.

Study 4 — method: universal PBM; molecule type: double-stranded DNA, one strand shown; medium: in vitro; concentration: 600 nM; direction: higher = stronger binding
Target: Sal-like protein 4, full length isoform A (SALL4, Homo sapiens, UniProt Q9UJQ4, residues 1-1053)
Chain of UniProt Q9UJQ4 (whole entry, looked up): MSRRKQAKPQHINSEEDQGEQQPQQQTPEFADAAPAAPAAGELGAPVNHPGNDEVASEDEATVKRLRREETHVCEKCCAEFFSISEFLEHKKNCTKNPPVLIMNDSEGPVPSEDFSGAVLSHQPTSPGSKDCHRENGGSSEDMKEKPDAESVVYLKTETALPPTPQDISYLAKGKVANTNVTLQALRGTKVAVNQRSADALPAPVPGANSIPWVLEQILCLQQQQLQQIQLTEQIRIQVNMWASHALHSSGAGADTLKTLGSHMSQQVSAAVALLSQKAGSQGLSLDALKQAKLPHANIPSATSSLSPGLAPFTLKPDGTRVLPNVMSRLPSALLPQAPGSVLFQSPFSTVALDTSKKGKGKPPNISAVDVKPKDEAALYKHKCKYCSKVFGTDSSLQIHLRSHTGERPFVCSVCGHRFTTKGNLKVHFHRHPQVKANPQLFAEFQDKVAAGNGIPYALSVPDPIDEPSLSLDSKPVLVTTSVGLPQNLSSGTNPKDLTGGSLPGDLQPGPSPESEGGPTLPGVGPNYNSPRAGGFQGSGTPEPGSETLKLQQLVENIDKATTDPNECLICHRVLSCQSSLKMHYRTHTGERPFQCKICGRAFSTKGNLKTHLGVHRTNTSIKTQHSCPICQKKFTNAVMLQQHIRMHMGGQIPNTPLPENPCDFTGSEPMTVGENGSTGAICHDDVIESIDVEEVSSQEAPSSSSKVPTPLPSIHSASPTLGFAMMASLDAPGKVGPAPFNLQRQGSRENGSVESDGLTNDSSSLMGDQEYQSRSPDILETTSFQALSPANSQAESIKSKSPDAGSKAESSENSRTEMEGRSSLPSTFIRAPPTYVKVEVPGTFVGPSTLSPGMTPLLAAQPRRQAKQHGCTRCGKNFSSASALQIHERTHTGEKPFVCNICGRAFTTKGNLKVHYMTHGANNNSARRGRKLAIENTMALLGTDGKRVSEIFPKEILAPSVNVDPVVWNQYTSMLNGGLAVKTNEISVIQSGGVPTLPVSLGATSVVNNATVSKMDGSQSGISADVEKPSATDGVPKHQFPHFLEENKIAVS
Setting: 8-mer, flanks averaged, mean of replicates
`CCCAGGAA` gave an E-score of -0.0728.
`CTAGTCCA` has an E-score of -0.0572.
For `GATCGGTA`, the E-score was 0.0643.
The E-score of `CGATTGAA` is reported as -0.0354.
For `AATCTCTA`, the E-score was 0.181.
`CAGGGGAC` gave an E-score of -0.253.
With `GAAAGTAC` the E-score was 0.145.
For `CCCGATGC`, the E-score was -0.369.
The E-score of `ACAGGCTA` is reported as 0.0102.
The E-score of `ACGGGGCT` is reported as -0.3.
For `ACCATGAA`, the E-score was 0.0912.
For `GACGCGCC`, the E-score was -0.33.
The E-score of `AAAACCAC` is reported as 0.104.
For `ACAGACGG`, the E-score was -0.134.
`CATTCTGC` gave an E-score of 0.0511.
With `GACGCGGA` the E-score was -0.308.
`CTTGAAAC` has an E-score of 0.0301.
`ACAGTCTC` gave an E-score of -0.00924.
With `CTTTTGGC` the E-score was -0.0444.
The E-score of `CCATTACG` is reported as -0.0919.
`ACTATAGC` gave an E-score of 0.0208.
For `TCGACGCA`, the E-score was -0.117.
`GTTCCATA` gave an E-score of 0.106.

Study 5 — target: CCND3, cyclin fold, Cln2 fusion (human); method: yeast growth competition, sequencing; medium: yeast; setting: weak parent motif; baseline: not given; direction: higher = stronger binding
Starting sequence: PKN2 docking peptide (human); VSAVRKLDFSDTM
`T12I` — result for “normalised enrichment score”: 0.546.
For `F9P`, “normalised enrichment score” read -0.0433.
For `D8M`, “normalised enrichment score” read 0.029.
For `D11T`, “normalised enrichment score” read 0.352.
Under “normalised enrichment score”, `D11K` is recorded as 0.522.
`A3K` — result for “normalised enrichment score”: 0.426.
`D11E` — result for “normalised enrichment score”: 0.935.
`T12Y` — result for “normalised enrichment score”: 1.07.
`L7C`: “normalised enrichment score” -0.166.
For `S10K`, “normalised enrichment score” read 0.363.
Under “normalised enrichment score”, `T12N` is recorded as 1.41.
For `T12G`, “normalised enrichment score” read 0.968.
Under “normalised enrichment score”, `S10N` is recorded as 0.784.
Under “normalised enrichment score”, `K6A` is recorded as 0.729.
`V4R`: “normalised enrichment score” 1.51.
`D11Y`: “normalised enrichment score” 0.24.
For `F9G`, “normalised enrichment score” read 0.488.
For `F9D`, “normalised enrichment score” read -0.0263.
Under “normalised enrichment score”, `R5T` is recorded as 0.17.
`F9W`: “normalised enrichment score” 0.464.
For `V4D`, “normalised enrichment score” read -0.232.
`V4H`: “normalised enrichment score” 0.0153.
`L7E`: “normalised enrichment score” -0.2.
`L7T`: “normalised enrichment score” 0.36.
